{"data": "Assay results pooled from the literature", "note": "Every numbered part comes from another study and shows a few of its results, in no order. Changes are numbered by the printed parent chain."}
{"data": "Series 1", "target": "Sal-like protein 4, full length isoform A (SALL4, Homo sapiens, UniProt Q9UJQ4, residues 1-1053)", "method": "universal PBM", "form": "double-stranded DNA, one strand shown", "sample": "in vitro", "tested at": "600 nM", "setting": "8-mer, flanks averaged, mean of replicates", "direction": "higher = stronger binding", "UniProt Q9UJQ4, sequence (whole entry, looked up)": "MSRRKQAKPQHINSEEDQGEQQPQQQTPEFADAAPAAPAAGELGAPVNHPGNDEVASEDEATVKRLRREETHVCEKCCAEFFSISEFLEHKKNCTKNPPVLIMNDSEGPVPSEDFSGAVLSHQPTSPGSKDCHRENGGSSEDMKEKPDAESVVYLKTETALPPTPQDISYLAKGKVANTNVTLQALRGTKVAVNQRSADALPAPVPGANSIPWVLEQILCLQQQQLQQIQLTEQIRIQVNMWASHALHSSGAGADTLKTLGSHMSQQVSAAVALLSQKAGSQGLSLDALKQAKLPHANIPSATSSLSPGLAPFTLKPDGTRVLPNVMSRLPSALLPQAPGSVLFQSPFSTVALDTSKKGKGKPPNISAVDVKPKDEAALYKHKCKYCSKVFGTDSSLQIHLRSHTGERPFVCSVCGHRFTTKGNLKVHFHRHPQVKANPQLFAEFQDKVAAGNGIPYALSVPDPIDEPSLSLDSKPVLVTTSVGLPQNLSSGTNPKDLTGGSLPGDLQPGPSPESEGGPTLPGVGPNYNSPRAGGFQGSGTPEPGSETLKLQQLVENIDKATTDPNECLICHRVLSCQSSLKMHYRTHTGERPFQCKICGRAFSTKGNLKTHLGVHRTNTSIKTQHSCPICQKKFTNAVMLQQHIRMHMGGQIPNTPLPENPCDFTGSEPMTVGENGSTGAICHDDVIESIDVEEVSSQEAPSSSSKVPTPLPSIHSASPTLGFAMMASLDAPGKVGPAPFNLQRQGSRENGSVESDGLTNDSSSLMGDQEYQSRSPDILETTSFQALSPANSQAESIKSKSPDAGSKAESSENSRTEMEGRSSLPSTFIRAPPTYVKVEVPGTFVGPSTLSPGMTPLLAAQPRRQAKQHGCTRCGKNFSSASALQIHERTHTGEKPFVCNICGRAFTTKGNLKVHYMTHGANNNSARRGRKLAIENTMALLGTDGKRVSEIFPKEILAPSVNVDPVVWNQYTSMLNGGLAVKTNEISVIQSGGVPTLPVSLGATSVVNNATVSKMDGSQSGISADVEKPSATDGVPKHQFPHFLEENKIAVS"}
{"Sequence": "CTCGTAGA", "E-score": -0.0784}
{"Sequence": "ACAACTTA", "E-score": 0.19}
{"Sequence": "AAAGTCGT", "E-score": 0.124}
{"Sequence": "CTACTACA", "E-score": 0.221}
{"Sequence": "CCAGATAG", "E-score": -0.0841}
{"Sequence": "AGACAAGC", "E-score": 0.00274}
{"Sequence": "CGCAGGCC", "E-score": -0.367}
{"Sequence": "CCATTAGA", "E-score": -0.0891}
{"Sequence": "TAACAAAA", "E-score": 0.35}
{"Sequence": "CCTGGTGA", "E-score": -0.209}
{"Sequence": "CTATGTCA", "E-score": 0.229}
{"Sequence": "GAGCGGGC", "E-score": -0.379}
{"Sequence": "GAGTATCA", "E-score": 0.00899}
{"Sequence": "AATTGGGC", "E-score": -0.0922}
{"Sequence": "AATCTGAC", "E-score": 0.0869}
{"Sequence": "CTACACAG", "E-score": 0.0711}
{"Sequence": "GAAATTAC", "E-score": 0.34}
{"Sequence": "ACGCTGTG", "E-score": -0.0905}
{"Sequence": "ATGAACGG", "E-score": -0.0213}
{"Sequence": "ATGTTCTG", "E-score": 0.0575}
{"Sequence": "AATTCTCC", "E-score": -0.0231}
{"Sequence": "AATTAACC", "E-score": 0.0795}
{"Sequence": "CAGACAGA", "E-score": -0.0246}
{"Sequence": "GACATTGC", "E-score": 0.0174}
{"Sequence": "CATATCTA", "E-score": 0.338}
{"data": "Series 2", "target": "Histone acetyltransferase KAT6A, winged helix 2, GST fusion (KAT6A, Homo sapiens, UniProt Q92794, residues 85-181)", "method": "protein binding microarray", "form": "double-stranded DNA, one strand shown", "sample": "in vitro", "tested at": "not given", "setting": "8-mer, flanks averaged, mean of 2 arrays, mostly near background", "baseline": "not given", "direction": "higher = stronger binding", "Target sequence (chain)": "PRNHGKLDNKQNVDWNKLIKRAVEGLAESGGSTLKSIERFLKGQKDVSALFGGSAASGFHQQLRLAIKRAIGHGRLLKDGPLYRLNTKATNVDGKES"}
{"Sequence": "AACAGTGC", "E-score": -0.0783}
{"Sequence": "CGGTACAC", "E-score": 0.0749}
{"Sequence": "CCTTTTGC", "E-score": 0.0829}
{"Sequence": "CGGGACCG", "E-score": 0.246}
{"Sequence": "TTAAATAA", "E-score": 0.112}
{"Sequence": "ACTGATAA", "E-score": -0.0653}
{"Sequence": "CCAGACGA", "E-score": 0.0102}
{"Sequence": "CCAACGCA", "E-score": 0.125}
{"Sequence": "ATAACACA", "E-score": -0.193}
{"Sequence": "CTTCGTTC", "E-score": 0.0667}
{"Sequence": "TGACACAA", "E-score": 0.0141}
{"Sequence": "CAACTTAA", "E-score": 0.0658}
{"Sequence": "ATCCAATC", "E-score": -0.0713}
{"Sequence": "CTACACAC", "E-score": -0.159}
{"Sequence": "CCATGCCG", "E-score": 0.301}
{"Sequence": "CCCAGTCG", "E-score": -0.119}
{"Sequence": "CGGAGAAA", "E-score": 0.134}
{"data": "Series 3", "target": "CCNB1, cyclin fold, Cln2 fusion (human)", "method": "yeast growth competition, sequencing", "sample": "yeast", "setting": "weak parent motif", "baseline": "not given", "direction": "higher = stronger binding", "parent": "WEE1 docking peptide (human); HKTFRKLRLFDTP"}
{"Change": "HETFRKLRLFDTP [K2E]", "normalised enrichment score": -0.553}
{"Change": "HKTFRKLRHFDTP [L9H]", "normalised enrichment score": 0.0764}
{"Change": "HKTFHKLRLFDTP [R5H]", "normalised enrichment score": 1.85}
{"Change": "HKTFRKLRQFDTP [L9Q]", "normalised enrichment score": 1.04}
{"Change": "HKTFRKLRLFSTP [D11S]", "normalised enrichment score": 0.851}
{"Change": "VKTFRKLRLFDTP [H1V]", "normalised enrichment score": -0.26}
{"Change": "HKTFRKLRLFDTY [P13Y]", "normalised enrichment score": 0.454}
{"Change": "HDTFRKLRLFDTP [K2D]", "normalised enrichment score": 0.978}
{"Change": "HKTFRKLRIFDTP [L9I]", "normalised enrichment score": -0.298}
{"Change": "HKTFYKLRLFDTP [R5Y]", "normalised enrichment score": 0.197}
{"Change": "HKTFRKLRLFDDP [T12D]", "normalised enrichment score": 0.527}
{"Change": "HKTFRKLREFDTP [L9E]", "normalised enrichment score": 0.568}
{"Change": "HKTFRKLRLFDTT [P13T]", "normalised enrichment score": 0.945}
{"data": "Series 4", "target": "Interferon regulatory factor 5, full length, phosphomimetic (IRF5, Homo sapiens, UniProt Q13568-2, residues 1-514, K96S/S451D/S453D/S456D/S462D)", "method": "protein-binding microarray", "form": "double-stranded DNA, one strand shown", "sample": "in vitro", "tested at": "250 nM", "setting": "60-bp whole probe", "together with": "salmon DNA 0.4 mg/ml", "baseline": "random background probes", "direction": "higher = stronger binding", "constant ends, left off below": "GCCTAGCAC … GTCTTGATTCGCTTGACGCTGCTG"}
{"Sequence": "TCAAGTTTTCTTTTCATACTGTGCTAG", "log fluorescence [z-score]": 1.97}
{"Sequence": "GACGGTCTTCTTATCCTGACGTGCTAG", "log fluorescence [z-score]": 0.037}
{"Sequence": "TTACATATCAGTTTCGATTAGTGCTAG", "log fluorescence [z-score]": 10.4}
{"Sequence": "CACGGTCTCGGACTGGGGACGTGCTAG", "log fluorescence [z-score]": -0.468}
{"Sequence": "TTAGGTTTCGGGCCTGGGTTAGTGCTA", "log fluorescence [z-score]": 5.29}
{"Sequence": "GACGGTTCCCTTATCCTGACGTGCTAG", "log fluorescence [z-score]": -0.394}
{"Sequence": "TCCATTTTCTAAATGCCCTGGTGCTAG", "log fluorescence [z-score]": 0.762}
{"Sequence": "TTACGTTTCGGTTCCGGTTAGTGCTAG", "log fluorescence [z-score]": 9.98}
{"Sequence": "TCATTTTTCTAATTTACACTGTGCTAG", "log fluorescence [z-score]": 1.12}
{"Sequence": "GACGGTCTCGGACTGGGGATGTGCTAG", "log fluorescence [z-score]": -0.101}
{"data": "Series 5", "target": "RNA binding protein fox-1 homolog 2, RRM domain, GST-SBP tag (RBFOX2, Homo sapiens, UniProt O43251-10, residues 100-194)", "method": "RNA Bind-n-Seq", "form": "RNA", "sample": "in vitro", "tested at": "365 nM", "setting": "natural RNA segment, single round, ends assumed", "baseline": "no-protein control", "direction": "higher = stronger binding", "constant ends, left off below": "GGGAGUUCUACAGUCCGACGAUC … UGGAAUUCUCGGGUGCCAA", "Residues (chain)": "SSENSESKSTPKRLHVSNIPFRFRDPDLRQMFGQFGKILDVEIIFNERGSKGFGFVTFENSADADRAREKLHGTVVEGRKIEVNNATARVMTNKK"}
{"Sequence": "GUUCUUUUUGCAUUUAAUGCCCAUCACUAUCCUCAUCCCAAAUAAAAUCCAUUCAUACUAGUGGACAUCAUUUCUAAGUUUCCUUGCUACUGUUACACCCUUUGAACGGA", "RBNS enrichment (R)": 0.854}
{"Sequence": "GCCCUGGGGUCAAGGGAAAGGAACUCUGUUAUCUUCUCAGAAUAAAUAUUACUGCCGCUCUAGAGGGUCUGUCUGUUUCAUUUUUCCCGUACCCCGCACCCCCCCACACA", "RBNS enrichment (R)": 0.7}
{"Sequence": "GAGCAGUGUCAGAGAUUCUUGCUUUAACUUUGAUUUGCUUUCUCCCAUUCUUGGCCCUGGUCACUAGGGUCCUGGCUAUUCUAGAACUCAGUAAAAUGUAUGUCUAAUGC", "RBNS enrichment (R)": 0.204}
{"Sequence": "CGGGUUUCCUGGGUCCCCUCUCCAGCAAGCCUCCACCAGCAAGCUCGGCCCAGAGCUUCCCUUCCGGCUGGCUCUGAACCGUGCGUGGUGCCUACAGCCUGCAGUCUGGA", "RBNS enrichment (R)": 0.196}
{"Sequence": "GUAGGGCCCAACAGGGACAGGAGACUUGAGGACACCUGUCAUCAGCACUGGUGUCUAUUCCACAAGACAGAUGUCUGCCCUGCCACUCCCUUCCGUCCGUCCCUGUCCGU", "RBNS enrichment (R)": 0.25}
{"Sequence": "UUCAAAUCUGGAUUGUUCUGUGAAGGGUCUCACUUUUGUAUCAUGAGACAAGAGUGCCUAUGAGAAACCAUUGCACCUGGGAGCACUGCUUGGAGCUAUCUCUACAUUUA", "RBNS enrichment (R)": 0.434}
{"Sequence": "AGAAUCAGCUAGCUAGCCAGGGGCCAUCCUGUGGGUCAGUAGAUGAGGUGUGUCCUGGCCCUGCGGAGAGAAGAGGCCUGUGGUUCAGCUGGCACGCUCUGCUCCAGGCU", "RBNS enrichment (R)": 0.609}
{"Sequence": "AAUAUCACUACUCUUUAACGAGUGCCAAAUCUUUUCCCACUUUUGCUCUUCCCCAAGGAACUGCUCCCACCUCAGCACGUGGAGGCCUCUCACGGUCCUCCUUCCUGGGA", "RBNS enrichment (R)": 0.524}
{"data": "Series 6", "target": "Ras GTPase-activating protein-binding protein 1, full length (G3BP1, Homo sapiens, UniProt Q13283)", "method": "RNA Bind-n-Seq", "form": "RNA", "sample": "in vitro", "tested at": "200 nM", "setting": "whole 134-nt RNA, ends assumed", "together with": "150 mM KCl", "baseline": "input library", "direction": "higher = stronger binding", "constant ends, left off below": "GGGAGUUCUACAGUCCGACGAUC … UGGAAUUCUCGGGUGUCAAGG", "UniProt Q13283, sequence (whole entry, looked up)": "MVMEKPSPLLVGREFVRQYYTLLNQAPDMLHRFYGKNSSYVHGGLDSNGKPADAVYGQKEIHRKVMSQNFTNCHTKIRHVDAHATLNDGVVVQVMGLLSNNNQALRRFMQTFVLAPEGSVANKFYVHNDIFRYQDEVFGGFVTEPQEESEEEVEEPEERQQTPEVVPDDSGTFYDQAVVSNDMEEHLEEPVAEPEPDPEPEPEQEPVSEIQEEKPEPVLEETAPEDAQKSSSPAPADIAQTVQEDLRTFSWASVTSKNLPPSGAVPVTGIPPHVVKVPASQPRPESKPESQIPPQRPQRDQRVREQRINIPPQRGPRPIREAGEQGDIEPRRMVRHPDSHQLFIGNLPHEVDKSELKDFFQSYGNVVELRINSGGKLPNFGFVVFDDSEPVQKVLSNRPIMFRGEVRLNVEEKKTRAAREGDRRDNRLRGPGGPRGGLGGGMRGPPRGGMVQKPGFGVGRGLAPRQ"}
{"Sequence": "AGUCCUGUGCUACACAUCGUAUGUACCGAAUCGGUUUUUGGGUUUUUGGGUUUUUGGAAAGUAUUAUGUUACGCCGUUCGGAUCUGCACU", "log2 enrichment": -1.16}
{"Sequence": "UCCUCAAGUCCUGUGCUACACAUCGUAUGUACCGAAUCGGAGGAAAGGAGGAAAGUAUUAUGUUACGCCGUUCGGAUCUGCACUUCCAGC", "log2 enrichment": -0.678}
{"Sequence": "UGGCCCUGGUGGCAUGCGGGGACGAAGAGGUGGCCUCAUGGAUCGUGGUGGUCCCGGUGGAAUGUUCAGAGGUGGCCGUGGUGGAGACAG", "log2 enrichment": 0.107}
{"Sequence": "GCAGGAAGUAAAAACAAAAAGAAAUGCUUCGGAUAGUGGCAGGGGUGGGGGUUGCUAAGGAAAGGGUGGGAUGGGAGUGGGUAAAGAGUU", "log2 enrichment": 1.03}
{"Sequence": "CACAGACAACACGCACCCACACAGACACAGAGGGAAGGGGUUGGGAUGGGGACAGGGUGCACAGCAGGGCGGGGUAAGACCCCAGCCCCU", "log2 enrichment": 1.96}
{"Sequence": "UGGCCCUGGUGGCAUGCGGGGAGGAAGAGGUGGCCUCAUGGAACGUGGUGGUCCCGGUGGAAUGUUCAGAGGUGGCCGUGGUGGAGACAG", "log2 enrichment": 0.202}
{"note": "Some of these lines once more (series 1):"}
{"Sequence": "AATTGGGC", "E-score": -0.0922}
{"Sequence": "AATCTGAC", "E-score": 0.0869}
{"Sequence": "CTACACAG", "E-score": 0.0711}
{"Sequence": "GAAATTAC", "E-score": 0.34}
